Measured values gathered from unrelated publications.
Lines come from different studies, so protocols differ. ± marks the error that the study gave.

C[C@@H](Cn1ccc(-c2ccc(C#N)c(Cl)c2)n1)NC(=O)c1cc([C@@H](C)O)[nH]n1 gave a Vd/F of 1220 L (human, fasted; oral, 300 mg darolutamide tablet, geometric mean).
The Vd/F of O=C(O)CCC(=O)O.[2H]C([2H])([2H])Oc1cc(C)c2[nH]ccc2c1CN1CC[C@@H](C2CC2)C[C@H]1c1ccc(C(=O)O)cc1 is reported as 128 L (LC-MS/MS, mean; human, plasma; 600 mg, single dose, fasting).
The Vd/F of Cc1ccc(=O)n(-c2ccccc2)c1 is reported as 52.1 L (healthy human; oral, 600 mg single, alone).
CC(C)c1nc(N(C)S(C)(=O)=O)nc(-c2ccc(F)cc2)c1/C=C/[C@@H](O)C[C@@H](O)CC(=O)O gave a Vd/F of 8700 L (human, plasma; oral, 20 mg, day 2, geometric mean, alone).
With CCCn1cc(C)c2c(=O)[nH]c(-c3cc(S(=O)(=O)N4CCN(CC)CC4)ccc3OCC)nc21 the Vd/F was 2770 ± 1110 L (human; oral, 100 mg, together with: alcoholic beverage 0.5 g/kg).
The Vd/F of CCN1CCN(Cc2ccc(Nc3ncc(F)c(-c4cc(F)c5nc6n(c5c4)[C@H](C)CCC6)n3)nc2)CC1 is reported as 1630 L (human, plasma; 200 mg single dose, mean).
For Cn1c(=O)oc2ccc(-c3ccc(C[C@@H](C#N)NC(=O)[C@@H]4CNCCCO4)cc3)cc21, the Vd/F was 397 L (human, mild renal impairment, plasma; oral, 25 mg single dose, mean).
CCN1[C@@H](C(=O)NC23CCC(C(=O)O)(CC2)CC3)[C@H](c2cccc(Cl)c2F)[C@]2(C(=O)Nc3cc(Cl)ccc32)C12CCCCC2 gave a Vd/F of 46.8 to 87.2 L (human; oral, single dose, mean across doses).

Repeated from above:
CCN1[C@@H](C(=O)NC23CCC(C(=O)O)(CC2)CC3)[C@H](c2cccc(Cl)c2F)[C@]2(C(=O)Nc3cc(Cl)ccc32)C12CCCCC2 gave a Vd/F of 46.8 to 87.2 L (human; oral, single dose, mean across doses).
